Measurements collected from several papers.
Each line is one published result; not all experiments were run side by side. “And” joins repeats or separate records; there may be more than shown. ± gives the spread as reported.

| Compound | cell line | assay | conditions | scale | measurement | value |
| --- | --- | --- | --- | --- | --- | --- |
| N#Cc1cccc(/C=C/C(=O)c2ccc(O)cc2)c1 | U-87 MG | item: SIVA1 | concentration not given | relative to: untreated | fold change | 0.038 |
| CCC(=CCc1c(O)cc2c(c1O)C(=O)CC(c1ccc(O)cc1OC)O2)CC (stereo not drawn) | HeLa | cell growth or viability, MTT | 50 µM, 48 h |  | inhibition | 97.1% |
| CC(=O)N[C@@H](Cc1c[nH]c2ccccc12)C(=O)N[C@@H](CCC(=O)O)C(=O)N[C@@H](C)C(=O)N[C@@H](CC(=O)O)C(=O)COC(=O)c1c(C)cccc1C | THP-1 cells, LPS-primed | pyroptosis, LDH release | 25 µM, LPS 1 µg/mL, 4 h, added: nigericin 5 µM, 2 h |  | cell lysis | 29.8% and 44.5% |
| CNS(=O)(=O)Nc1nccc(Cc2c(C)c3ccc(Oc4ncccc4F)cc3oc2=O)c1F | NCI-H1299 | cell viability | 7 days |  | IC50 | > 1 µM |
| Cc1ncsc1-c1ccc(C(C)NC(=O)C2CC(O)CN2C(=O)C(NC(=O)CCCCCCCCCCN2CCCC(Nc3ncc(Cl)c(Nc4ccccc4S(=O)(=O)C(C)C)n3)C2)C(C)(C)C)cc1 (stereo not drawn) | 22Rv1 | RNA-seq, item: SLC25A21-AS1 | concentration not given | relative to: DMSO | log2 fold change | -1.32 |
| Nc1c(NCO)c2ccccc2oc1=O | COS-7 (untransfected) |  | 500 µM, unit not given | relative to: 3 µM ionomycin | calcium mobilisation signal | 0.05 ± 0.95 |
| CCC(=CCc1c(O)cc2c(c1O)C(=O)CC(c1ccccc1O)O2)CC (stereo not drawn) | HeLa | cell growth or viability, MTT | 3.75 µM, 48 h |  | inhibition | 4.49% |
| CCNc1cc2c(cc1C)C1(c3cc(C)c(NCC)cc3O2)c2ccccc2C(=O)N1N=Cc1c[c-]c(-c2ccccn2)cc1.Cc1c(C)c(-c2ccc(-c3ccccc3)cc2)[c-](C)c1C.[Cl-].[Ir+3] | A549 | PI flow cytometry | 1 x IC50, 24 h |  | G0/G1 phase cells | 50.78 ± 0.29% |
| CC(=O)N[C@H](C(=O)N[C@@H](CCC(=O)O)C(=O)N[C@@H](C)C(=O)N[C@@H](CC(=O)O)C(=O)COC(=O)c1c(C)cccc1C)C(C)C | THP-1 cells, LPS-primed | pyroptosis, LDH release | 25 µM, LPS 1 µg/mL, 4 h, added: nigericin 5 µM, 2 h |  | cell lysis | 94.6% and 99% |
| O=S(=O)(Nc1ccc(OC(F)(F)F)cc1)N1CCCC(C2c3ccc(F)cc3CCc3cc(F)ccc32)C1 (stereo not drawn) | D425 | immunoblot, item: CIP2A | concentration not given |  | protein level | decreased |
| N#C[C@@H]1CCCN1C(=O)CNC(=O)c1ccnc2ccc(OCCCN3CCN(C(=O)CCc4ccc(O)c(CN5CCN6CC(=O)[O][Al-]([18F])([O]C(=O)C5)[O]c5ccc(CCC(=O)N7CCN(CCCOc8ccc9nccc(C(=O)NCC(=O)N%10CCC[C@H]%10C#N)c9c8)CC7)cc5C6)c4)CC3)cc12 (stereo partly drawn) | HT1080 cells expressing human FAP |  | 30 min, 37 °C |  | internalized fraction | 66 ± 4.2% |
| C=CC(=O)N1CCCC(n2c(=O)c3ncccc3n(Cc3ccc(Oc4ccccc4)cc3)c2=O)C1 (stereo not drawn) | OCI-LY19 | annexin V/PI flow cytometry | 500 nM, 72 h |  | early apoptotic cells | 6.12% |
| COC(=O)c1ccc(S(=O)(=O)NC23CCCC(C)(CCC4C2CC4(C)C)C3)cc1 (stereo not drawn) | HT-29 | cell growth or viability, CCK-8 | 10 µM |  | inhibition | < 50% |
| CCN(CC)CC(=O)Nc1cccc(-n2cc(-c3ccc4ccc(-c5cn(-c6cccc(NC(=O)CN(CC)CC)c6)nn5)cc4c3)nn2)c1 | RCC4 | PCR angiogenesis array, item: NOS3 | 5 x IC50, 2 h, normoxia | relative to: untreated | fold regulation | 1.02 |
| CN1CCCNC(=O)c2cccc(c2)C(=O)NCCCN(C)CCCNc2cccc3c2C(=O)c2cccc(c2C3=O)NCCC1 | SAS | RNA-Seq, item: BAZ1B mRNA | 1 µM, 6 h | relative to: untreated cells | log2 fold change | -0.826 |
| COc1cccc(CNC[C@@](O)(COCc2ccccc2)[C@@H]2CC[C@@H](C)C[C@H]2OCc2ccccc2)c1 | A2780 | cell growth or viability, MTT | 30 µM, 72 h |  | inhibition | 95.1% |
| CCN(C(=O)c1cc(F)ccc1Oc1nncnc1N1CCC2(C1)CN([C@H](CCCN(C)CCOC)C(C)C)C2)C(C)C | CLS-439 | cell growth | 72 h |  | GI50 | > 10 µM |
| CCOC(=O)c1cn(C23CCCC(C)(CCC4C2CC4(C)C)C3)nn1 (stereo not drawn) | HT-29 | cell growth or viability, CCK-8 | 10 µM |  | inhibition | < 50% |

Excerpt of the above:
| Compound | cell line | assay | conditions | scale | measurement | value |
| --- | --- | --- | --- | --- | --- | --- |
| COc1cccc(CNC[C@@](O)(COCc2ccccc2)[C@@H]2CC[C@@H](C)C[C@H]2OCc2ccccc2)c1 | A2780 | cell growth or viability, MTT | 30 µM, 72 h |  | inhibition | 95.1% |
| CCN(C(=O)c1cc(F)ccc1Oc1nncnc1N1CCC2(C1)CN([C@H](CCCN(C)CCOC)C(C)C)C2)C(C)C | CLS-439 | cell growth | 72 h |  | GI50 | > 10 µM |
